Results gathered from unrelated publications.
Compare with care: the assays were run in different laboratories.
ache: Acetylcholinesterase (ache, Electrophorus electricus, UniProt O42275)
UniProt O42275, sequence (whole entry, looked up): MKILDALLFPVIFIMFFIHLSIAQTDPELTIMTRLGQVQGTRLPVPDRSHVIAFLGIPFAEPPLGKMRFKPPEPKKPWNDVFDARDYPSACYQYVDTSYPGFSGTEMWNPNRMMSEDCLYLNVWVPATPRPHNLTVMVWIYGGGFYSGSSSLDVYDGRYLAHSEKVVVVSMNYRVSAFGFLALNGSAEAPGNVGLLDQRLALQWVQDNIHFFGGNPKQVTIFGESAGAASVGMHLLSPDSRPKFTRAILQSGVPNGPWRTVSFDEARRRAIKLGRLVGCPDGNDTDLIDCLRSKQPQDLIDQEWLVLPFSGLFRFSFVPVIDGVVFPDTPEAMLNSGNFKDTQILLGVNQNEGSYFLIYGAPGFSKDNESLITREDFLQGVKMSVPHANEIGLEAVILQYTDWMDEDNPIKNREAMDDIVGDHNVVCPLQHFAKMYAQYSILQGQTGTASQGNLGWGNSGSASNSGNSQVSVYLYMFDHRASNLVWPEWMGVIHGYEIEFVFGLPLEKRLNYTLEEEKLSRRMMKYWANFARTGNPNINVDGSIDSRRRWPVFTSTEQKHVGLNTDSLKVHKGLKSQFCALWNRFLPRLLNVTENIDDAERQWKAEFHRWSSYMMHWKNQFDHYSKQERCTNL
UniProt P25929, sequence (whole entry, looked up): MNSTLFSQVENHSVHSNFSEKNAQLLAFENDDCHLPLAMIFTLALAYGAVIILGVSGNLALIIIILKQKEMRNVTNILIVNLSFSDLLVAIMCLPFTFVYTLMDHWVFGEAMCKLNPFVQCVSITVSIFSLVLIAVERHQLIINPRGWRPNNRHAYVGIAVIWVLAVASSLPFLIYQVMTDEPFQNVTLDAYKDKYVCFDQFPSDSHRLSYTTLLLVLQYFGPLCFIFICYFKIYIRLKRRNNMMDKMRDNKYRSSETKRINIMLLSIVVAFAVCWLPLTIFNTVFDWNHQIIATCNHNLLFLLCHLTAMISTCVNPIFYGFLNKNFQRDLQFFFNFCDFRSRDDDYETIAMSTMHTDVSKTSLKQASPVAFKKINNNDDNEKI
UniProt O43148, sequence (whole entry, looked up): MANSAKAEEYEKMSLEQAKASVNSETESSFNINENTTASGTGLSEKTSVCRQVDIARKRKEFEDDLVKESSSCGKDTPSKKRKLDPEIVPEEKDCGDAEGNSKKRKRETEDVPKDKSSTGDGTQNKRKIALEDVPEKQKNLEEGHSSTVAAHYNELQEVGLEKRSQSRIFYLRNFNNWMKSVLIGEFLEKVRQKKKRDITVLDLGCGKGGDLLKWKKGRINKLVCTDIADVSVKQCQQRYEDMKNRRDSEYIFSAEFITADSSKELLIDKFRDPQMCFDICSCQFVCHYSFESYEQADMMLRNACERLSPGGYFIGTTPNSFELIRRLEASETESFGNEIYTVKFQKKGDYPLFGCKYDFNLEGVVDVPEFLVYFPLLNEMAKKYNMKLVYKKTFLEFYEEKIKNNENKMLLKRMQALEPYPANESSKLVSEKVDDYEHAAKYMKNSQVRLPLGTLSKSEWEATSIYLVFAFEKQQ
UniProt P19525, sequence (whole entry, looked up): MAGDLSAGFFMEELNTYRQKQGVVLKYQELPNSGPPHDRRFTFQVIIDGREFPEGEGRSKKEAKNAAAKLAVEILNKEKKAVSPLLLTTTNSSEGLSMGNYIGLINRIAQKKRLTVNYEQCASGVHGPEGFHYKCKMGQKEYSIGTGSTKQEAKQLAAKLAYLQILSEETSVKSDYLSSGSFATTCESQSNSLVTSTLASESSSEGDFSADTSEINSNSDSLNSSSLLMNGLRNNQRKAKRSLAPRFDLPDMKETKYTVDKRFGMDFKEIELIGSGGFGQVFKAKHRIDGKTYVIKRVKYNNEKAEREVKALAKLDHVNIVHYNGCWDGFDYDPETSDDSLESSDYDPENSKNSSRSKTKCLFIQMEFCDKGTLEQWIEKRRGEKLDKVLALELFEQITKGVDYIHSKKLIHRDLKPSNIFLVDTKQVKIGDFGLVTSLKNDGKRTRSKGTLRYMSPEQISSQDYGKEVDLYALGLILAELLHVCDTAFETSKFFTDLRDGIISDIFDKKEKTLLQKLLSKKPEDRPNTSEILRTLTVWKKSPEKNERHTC
UniProt O13828, sequence (whole entry, looked up): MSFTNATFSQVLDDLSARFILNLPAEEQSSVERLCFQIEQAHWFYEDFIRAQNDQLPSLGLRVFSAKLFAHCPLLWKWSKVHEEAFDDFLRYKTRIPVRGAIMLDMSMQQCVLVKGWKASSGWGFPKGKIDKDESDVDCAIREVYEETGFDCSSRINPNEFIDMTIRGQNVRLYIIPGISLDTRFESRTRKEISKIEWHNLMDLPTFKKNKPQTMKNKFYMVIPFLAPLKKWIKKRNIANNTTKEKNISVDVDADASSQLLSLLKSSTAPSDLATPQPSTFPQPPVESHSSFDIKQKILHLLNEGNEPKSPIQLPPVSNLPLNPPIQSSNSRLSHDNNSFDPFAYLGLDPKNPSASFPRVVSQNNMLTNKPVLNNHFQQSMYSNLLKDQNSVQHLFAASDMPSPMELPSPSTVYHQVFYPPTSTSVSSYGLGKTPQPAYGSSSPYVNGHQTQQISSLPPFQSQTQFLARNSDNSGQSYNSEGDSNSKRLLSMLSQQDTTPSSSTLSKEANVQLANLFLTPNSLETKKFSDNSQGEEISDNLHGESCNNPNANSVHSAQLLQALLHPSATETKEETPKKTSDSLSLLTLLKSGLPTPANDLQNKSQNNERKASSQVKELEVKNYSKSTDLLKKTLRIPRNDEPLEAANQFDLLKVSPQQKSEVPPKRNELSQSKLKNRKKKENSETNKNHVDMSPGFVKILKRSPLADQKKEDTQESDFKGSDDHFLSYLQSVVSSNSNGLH
UniProt Q9Y3S1, sequence (whole entry, looked up): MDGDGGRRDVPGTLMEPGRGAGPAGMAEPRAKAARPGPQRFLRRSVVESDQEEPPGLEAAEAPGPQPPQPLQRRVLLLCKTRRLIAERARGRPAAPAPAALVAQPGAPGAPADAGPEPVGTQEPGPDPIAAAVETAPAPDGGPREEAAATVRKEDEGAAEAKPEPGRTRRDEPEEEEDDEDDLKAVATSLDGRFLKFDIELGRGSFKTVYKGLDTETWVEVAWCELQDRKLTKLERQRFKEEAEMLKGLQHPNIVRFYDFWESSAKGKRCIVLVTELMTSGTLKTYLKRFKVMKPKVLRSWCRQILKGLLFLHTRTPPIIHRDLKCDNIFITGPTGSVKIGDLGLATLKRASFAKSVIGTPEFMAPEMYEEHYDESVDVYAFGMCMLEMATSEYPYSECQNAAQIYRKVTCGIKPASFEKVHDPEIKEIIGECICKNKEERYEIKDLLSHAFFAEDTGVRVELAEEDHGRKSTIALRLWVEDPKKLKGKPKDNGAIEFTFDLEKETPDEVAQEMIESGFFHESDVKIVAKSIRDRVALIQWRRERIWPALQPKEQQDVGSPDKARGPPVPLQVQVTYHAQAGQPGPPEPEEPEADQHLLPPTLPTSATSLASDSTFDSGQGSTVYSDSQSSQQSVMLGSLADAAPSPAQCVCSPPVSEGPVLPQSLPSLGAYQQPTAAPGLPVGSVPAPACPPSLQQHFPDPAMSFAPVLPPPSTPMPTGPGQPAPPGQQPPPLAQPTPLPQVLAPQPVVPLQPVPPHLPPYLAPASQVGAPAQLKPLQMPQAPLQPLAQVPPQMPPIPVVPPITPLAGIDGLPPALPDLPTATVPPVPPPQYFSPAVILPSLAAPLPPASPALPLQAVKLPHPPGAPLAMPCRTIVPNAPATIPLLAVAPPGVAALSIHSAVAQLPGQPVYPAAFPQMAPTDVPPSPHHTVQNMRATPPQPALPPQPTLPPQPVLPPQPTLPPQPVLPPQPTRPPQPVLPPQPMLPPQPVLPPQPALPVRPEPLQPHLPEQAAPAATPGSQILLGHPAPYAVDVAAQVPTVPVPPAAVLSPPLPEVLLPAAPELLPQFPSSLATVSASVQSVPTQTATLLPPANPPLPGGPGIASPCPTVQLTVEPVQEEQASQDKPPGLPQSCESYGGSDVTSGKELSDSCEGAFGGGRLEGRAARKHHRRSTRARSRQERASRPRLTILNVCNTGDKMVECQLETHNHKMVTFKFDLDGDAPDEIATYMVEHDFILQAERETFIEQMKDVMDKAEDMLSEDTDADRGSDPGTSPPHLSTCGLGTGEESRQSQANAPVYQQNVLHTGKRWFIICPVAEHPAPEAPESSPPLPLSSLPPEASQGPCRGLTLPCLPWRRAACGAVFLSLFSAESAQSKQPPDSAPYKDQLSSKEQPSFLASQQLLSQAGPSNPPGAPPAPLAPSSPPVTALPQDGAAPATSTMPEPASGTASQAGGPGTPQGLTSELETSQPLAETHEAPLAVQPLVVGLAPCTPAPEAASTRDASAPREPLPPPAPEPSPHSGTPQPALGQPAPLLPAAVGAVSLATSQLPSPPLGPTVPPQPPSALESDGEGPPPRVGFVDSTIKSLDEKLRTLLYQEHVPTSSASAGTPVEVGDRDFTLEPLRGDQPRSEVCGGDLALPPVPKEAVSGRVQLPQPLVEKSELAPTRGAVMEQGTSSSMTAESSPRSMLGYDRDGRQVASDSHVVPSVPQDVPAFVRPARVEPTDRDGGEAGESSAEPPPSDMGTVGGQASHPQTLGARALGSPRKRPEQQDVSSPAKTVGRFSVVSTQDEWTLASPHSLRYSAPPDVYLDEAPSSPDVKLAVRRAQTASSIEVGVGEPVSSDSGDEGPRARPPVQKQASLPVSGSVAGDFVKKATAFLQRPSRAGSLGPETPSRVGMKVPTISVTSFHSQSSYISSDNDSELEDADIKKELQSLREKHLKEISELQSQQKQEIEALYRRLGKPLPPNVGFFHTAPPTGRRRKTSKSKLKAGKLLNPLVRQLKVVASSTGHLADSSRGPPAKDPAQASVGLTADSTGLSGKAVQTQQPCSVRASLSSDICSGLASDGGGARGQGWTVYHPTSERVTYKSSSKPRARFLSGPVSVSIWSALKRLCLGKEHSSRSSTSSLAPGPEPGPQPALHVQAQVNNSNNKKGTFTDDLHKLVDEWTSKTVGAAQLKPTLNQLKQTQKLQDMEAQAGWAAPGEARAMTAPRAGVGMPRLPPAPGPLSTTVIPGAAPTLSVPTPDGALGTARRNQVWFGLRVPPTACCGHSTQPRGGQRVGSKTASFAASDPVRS

For `O=C(NC1CCN(c2ncnc3[nH]cnc23)CC1)c1cccc(NS(=O)(=O)c2ccc(C(F)(F)F)cc2)c1`, the inhibition was 5.52% (mRNA cap guanine-N(7) methyltransferase (RNMT, Homo sapiens, UniProt O43148); enzyme activity, inhibitor; 200 µM).
With `C/C(=N\OCCCN1CCCCC1)c1ccc(C(F)(F)F)cc1` the inhibition was -0.54% (5-hydroxytryptamine receptor 3A (HTR3A, Homo sapiens, UniProt P46098); calcium influx, antagonist, FLIPR; 10 µM).
With `CN[C@@H]1[C@H](O)[C@H](NC)[C@H]2O[C@]3(O)[C@H](O[C@@H]2[C@H]1O)O[C@H](C)C[C@H]3NC(=O)Cc1ccc(Cl)cn1` the inhibition was -2% (Neuropeptide Y receptor type 1 (NPY1R, Homo sapiens, UniProt P25929); ligand displacement, radioligand; 10 µM).
For `C[n+]1cn([C@@H]2O[C@H](COP(=O)([S-])OP(=O)(O)CP(=O)(O)OP(=O)([S-])OC[C@H]3O[C@@H](n4c[n+](C)c5c(O)nc(N)nc54)[C@H](O)[C@@H]3O)[C@@H](O)[C@H]2O)c2nc(N)nc(O)c21` (stereo partly shown), the inhibition was 33.1% (mRNA decapping complex subunit 2, with Dcp1 (dcp2, Schizosaccharomyces pombe, UniProt O13828); 200 µM, 0.5 h).
The inhibition of `CC(=O)NC[C@@H]1[C@@H](O)C[C@H]2[C@H](O)C[C@@H](CO)N12` is reported as 32.2% (human placental β-N-acetylglucosaminidase; 0.0214 µM, run 2, together with: p-nitrophenyl GlcNAc).
`O=C(CN1CN(c2ccccc2)C2(CCN(C(=O)c3cnc4[nH]ncc4c3)CC2)C1=O)NCC(F)(F)F` gave an inhibition of < 50% (MAP/microtubule affinity-regulating kinase 4 (MARK4, Homo sapiens, UniProt Q96L34); inhibitor; concentration not given).
The inhibition of `NCc1ccncc1` is reported as 31.2% (ache; enzyme activity, inhibitor, Ellman; 20 µM).
`CCc1nnc(-c2c(OC)cc(-c3cnc4cc(-c5cnn(C)c5)ccn34)cc2OC)o1` gave an inhibition of 7% (D(1A) dopamine receptor (DRD1, Homo sapiens, UniProt P21728); antagonist radioligand, radioligand binding; 10 µM, SafetyScreen44 D1).
`CS(C)(=O)=Nc1ccc(-c2ccc(-c3nc4cc(O[C@@H]5CO[C@H]6[C@@H]5OC[C@H]6O)[nH]c4cc3F)cc2)cc1` gave an inhibition of 26% (Serine/threonine-protein kinase WNK2 (WNK2, Homo sapiens, UniProt Q9Y3S1); enzyme activity, inhibitor; 10 µM).
`N[C@H](C(=O)N1CCCC1)C1CCN(c2nccc3c(-c4ncc(Cl)cc4Cl)cccc23)CC1` has an inhibition of -29% (GABA transporter; binding, radioligand binding; 10 µM).
With `CCCN` the inhibition was 38.5% (ache; enzyme activity, inhibitor, Ellman; 20 µM).
The inhibition of `CN(C)[C@H]1C[C@@]23CC[C@@]4(O2)C(=CC[C@]2(C)[C@@H](c5ccc6ccncc6c5)CC[C@H]24)C=C3[C@@H](O)[C@@H]1O` is reported as -12.5% (Phosphatidylinositol 4,5-bisphosphate 3-kinase catalytic subunit delta isoform (PIK3CD, Homo sapiens, UniProt O00329); ATP probe labelling, inhibitor, KiNativ profiling; 0.1 µM).
`CC(C)[C@H]1NC(=O)C[C@H]2/C=C/CCSSC[C@@H](NC1=O)C(=O)N[C@H](Cc1cccc3ccccc13)C(=O)NCC(=O)O2` gave an inhibition of 0.281% (Interferon-induced, double-stranded RNA-activated protein kinase (EIF2AK2, Homo sapiens, UniProt P19525); enzyme activity, inhibitor; 10 µM).

A few entries again:
For `C[n+]1cn([C@@H]2O[C@H](COP(=O)([S-])OP(=O)(O)CP(=O)(O)OP(=O)([S-])OC[C@H]3O[C@@H](n4c[n+](C)c5c(O)nc(N)nc54)[C@H](O)[C@@H]3O)[C@@H](O)[C@H]2O)c2nc(N)nc(O)c21` (stereo partly shown), the inhibition was 33.1% (mRNA decapping complex subunit 2, with Dcp1 (dcp2, Schizosaccharomyces pombe, UniProt O13828); 200 µM, 0.5 h).
